{"data": "Assay results pooled from the literature", "cell line": "TK-10", "note": "Compare with care: the assays were run in different laboratories."}
{"Compound": "CCC(=C(c1ccc(Cl)cc1)c1ccc(OCCCN(C)C)cc1)c1ccc(OC)cc1", "test": "cell growth or viability", "measurement": "GI50", "result": "6.23 µM"}
{"Compound": "COc1cc(CNC(=O)C[C@H](C)CCC=C(C)C)ccc1OCc1cn(-c2ccc([N+](=O)[O-])cc2)nn1", "test": "SRB", "setting": "10 µM, 48 h", "measurement": "growth percent", "result": "105%"}
{"Compound": "CC(=O)OC[C@H]1O[C@@H](Sc2sc(C(=O)c3ccc(Br)cc3)c(N)c2-c2nc3ccccc3s2)[C@H](OC(C)=O)[C@@H](OC(C)=O)[C@H]1OC(C)=O", "test": "SRB", "setting": "10 µM, 48 h", "how to read": "baseline: untreated", "measurement": "growth", "result": "128%"}
{"Compound": "COc1cc(CNC(=O)C[C@H](C)CCC=C(C)C)ccc1OCc1cn(-c2ccc(C#N)cc2)nn1", "test": "SRB", "setting": "10 µM, 48 h", "measurement": "growth percent", "result": "105%"}
{"Compound": "CC(Cc1ccc(Cl)cc1)=C(c1ccc(Cl)cc1)c1ccc(OCCN(C)C)cc1", "test": "cell growth or viability", "measurement": "GI50", "result": "5.1 µM"}
{"Compound": "COc1ccc2c(c1)/C(=N\\Nc1nnc3n1N=C(c1ccccc1)CS3)C(=O)N2", "test": "cell growth or viability, SRB", "setting": "10 µM", "measurement": "inhibition", "result": "29%"}
{"Compound": "CC/C=C\\C/C=C\\C/C=C\\C/C=C\\C/C=C\\C/C=C\\CCC(=O)Nc1ccn(C2OC(CO)C(O)C2(F)F)c(=O)n1 (stereo not drawn)", "test": "NCI60 screen", "measurement": "TGI", "result": "29.4 µM"}
{"Compound": "COc1cc(CNC(=O)C[C@H](C)CCC=C(C)C)ccc1OCc1cn(-c2ccc(Cl)cc2Cl)nn1", "test": "SRB", "setting": "10 µM, 48 h", "measurement": "growth percent", "result": "68.7%"}
{"Compound": "CC(=O)OC[C@H]1O[C@@H](Sc2sc(C(=O)c3ccc(C)cc3)c(N)c2-c2nc3ccccc3s2)[C@H](OC(C)=O)[C@@H](OC(C)=O)[C@@H]1OC(C)=O", "test": "SRB", "setting": "10 µM, 48 h", "how to read": "baseline: untreated", "measurement": "growth", "result": "99.3%"}
{"note": "A few entries again:"}
{"Compound": "COc1ccc2c(c1)/C(=N\\Nc1nnc3n1N=C(c1ccccc1)CS3)C(=O)N2", "test": "cell growth or viability, SRB", "setting": "10 µM", "measurement": "inhibition", "result": "29%"}
